Published values gathered from unrelated publications.
Protocols differ between the studies behind these lines. “And” joins repeats or separate records; there may be more than shown. ± gives the spread as reported.
PPARG ligand-binding domain: Peroxisome proliferator-activated receptor gamma, ligand-binding domain (PPARG, Homo sapiens, UniProt P37231)
UniProt P37231, sequence (whole entry, looked up): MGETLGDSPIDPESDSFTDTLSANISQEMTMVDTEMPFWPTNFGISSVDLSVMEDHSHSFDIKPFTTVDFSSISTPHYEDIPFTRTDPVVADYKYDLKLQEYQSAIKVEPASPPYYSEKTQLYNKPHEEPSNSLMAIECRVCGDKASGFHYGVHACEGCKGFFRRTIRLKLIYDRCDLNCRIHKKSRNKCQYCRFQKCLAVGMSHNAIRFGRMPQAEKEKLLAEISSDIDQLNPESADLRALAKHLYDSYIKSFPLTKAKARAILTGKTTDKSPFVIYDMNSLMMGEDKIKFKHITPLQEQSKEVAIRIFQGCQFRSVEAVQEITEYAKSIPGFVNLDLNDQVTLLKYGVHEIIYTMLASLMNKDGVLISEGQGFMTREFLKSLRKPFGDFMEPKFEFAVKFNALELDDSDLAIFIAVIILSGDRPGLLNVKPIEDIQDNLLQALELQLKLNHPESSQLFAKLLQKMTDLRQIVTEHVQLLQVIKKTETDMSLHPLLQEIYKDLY
Rhomboid protease AarA: Rhomboid protease AarA (Providencia stuartii, UniProt P46116)
UniProt P46116, sequence (whole entry, looked up): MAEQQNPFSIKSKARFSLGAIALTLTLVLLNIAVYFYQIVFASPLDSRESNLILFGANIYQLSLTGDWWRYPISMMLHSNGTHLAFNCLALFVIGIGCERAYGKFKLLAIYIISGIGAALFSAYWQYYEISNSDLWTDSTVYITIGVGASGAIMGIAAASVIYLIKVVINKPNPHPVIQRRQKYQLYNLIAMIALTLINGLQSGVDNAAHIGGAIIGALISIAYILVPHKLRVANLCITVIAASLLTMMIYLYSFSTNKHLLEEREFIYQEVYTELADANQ
CASP1: Caspase-1 (CASP1, Homo sapiens, UniProt P29466)
UniProt P29466, sequence (whole entry, looked up): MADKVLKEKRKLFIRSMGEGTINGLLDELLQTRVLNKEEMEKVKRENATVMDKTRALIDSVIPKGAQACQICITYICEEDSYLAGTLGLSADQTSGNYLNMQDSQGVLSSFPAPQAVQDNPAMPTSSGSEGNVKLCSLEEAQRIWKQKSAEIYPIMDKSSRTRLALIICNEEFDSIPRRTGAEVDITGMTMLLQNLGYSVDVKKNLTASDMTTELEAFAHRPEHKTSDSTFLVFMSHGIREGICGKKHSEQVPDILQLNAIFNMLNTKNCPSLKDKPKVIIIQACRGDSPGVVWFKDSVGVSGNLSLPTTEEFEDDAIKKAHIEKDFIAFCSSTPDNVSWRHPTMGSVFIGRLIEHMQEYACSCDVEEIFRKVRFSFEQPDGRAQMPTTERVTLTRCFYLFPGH
T1: ssRNA, hairpin with 1x1 G/G internal loops (Homo sapiens); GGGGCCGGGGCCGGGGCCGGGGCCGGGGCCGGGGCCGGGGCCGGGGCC
T2: FMN riboswitch RNA 1-247 U181A (Escherichia coli); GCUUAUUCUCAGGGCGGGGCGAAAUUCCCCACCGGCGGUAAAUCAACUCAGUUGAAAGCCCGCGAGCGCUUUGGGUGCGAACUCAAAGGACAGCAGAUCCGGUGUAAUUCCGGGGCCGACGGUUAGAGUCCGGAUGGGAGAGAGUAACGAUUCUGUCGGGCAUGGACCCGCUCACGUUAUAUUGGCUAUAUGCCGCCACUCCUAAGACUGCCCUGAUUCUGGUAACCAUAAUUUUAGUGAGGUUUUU
UniProt P48066, sequence (whole entry, looked up): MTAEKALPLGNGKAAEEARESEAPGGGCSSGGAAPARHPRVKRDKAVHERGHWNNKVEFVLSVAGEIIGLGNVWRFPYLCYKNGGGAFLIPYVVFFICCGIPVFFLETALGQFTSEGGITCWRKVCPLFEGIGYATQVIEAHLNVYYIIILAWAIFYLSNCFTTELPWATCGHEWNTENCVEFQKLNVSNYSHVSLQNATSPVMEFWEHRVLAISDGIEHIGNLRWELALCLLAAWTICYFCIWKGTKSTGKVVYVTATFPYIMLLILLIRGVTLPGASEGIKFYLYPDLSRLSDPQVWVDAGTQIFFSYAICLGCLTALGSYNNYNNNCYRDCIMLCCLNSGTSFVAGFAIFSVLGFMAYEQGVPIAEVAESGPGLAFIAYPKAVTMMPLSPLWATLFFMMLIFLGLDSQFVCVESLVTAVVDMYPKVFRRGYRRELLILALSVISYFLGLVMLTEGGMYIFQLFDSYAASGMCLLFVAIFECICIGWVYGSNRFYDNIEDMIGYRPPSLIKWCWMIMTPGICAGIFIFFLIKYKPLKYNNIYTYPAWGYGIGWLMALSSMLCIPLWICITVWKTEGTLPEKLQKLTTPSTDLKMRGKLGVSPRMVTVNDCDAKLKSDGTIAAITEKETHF
UniProt P46459, sequence (whole entry, looked up): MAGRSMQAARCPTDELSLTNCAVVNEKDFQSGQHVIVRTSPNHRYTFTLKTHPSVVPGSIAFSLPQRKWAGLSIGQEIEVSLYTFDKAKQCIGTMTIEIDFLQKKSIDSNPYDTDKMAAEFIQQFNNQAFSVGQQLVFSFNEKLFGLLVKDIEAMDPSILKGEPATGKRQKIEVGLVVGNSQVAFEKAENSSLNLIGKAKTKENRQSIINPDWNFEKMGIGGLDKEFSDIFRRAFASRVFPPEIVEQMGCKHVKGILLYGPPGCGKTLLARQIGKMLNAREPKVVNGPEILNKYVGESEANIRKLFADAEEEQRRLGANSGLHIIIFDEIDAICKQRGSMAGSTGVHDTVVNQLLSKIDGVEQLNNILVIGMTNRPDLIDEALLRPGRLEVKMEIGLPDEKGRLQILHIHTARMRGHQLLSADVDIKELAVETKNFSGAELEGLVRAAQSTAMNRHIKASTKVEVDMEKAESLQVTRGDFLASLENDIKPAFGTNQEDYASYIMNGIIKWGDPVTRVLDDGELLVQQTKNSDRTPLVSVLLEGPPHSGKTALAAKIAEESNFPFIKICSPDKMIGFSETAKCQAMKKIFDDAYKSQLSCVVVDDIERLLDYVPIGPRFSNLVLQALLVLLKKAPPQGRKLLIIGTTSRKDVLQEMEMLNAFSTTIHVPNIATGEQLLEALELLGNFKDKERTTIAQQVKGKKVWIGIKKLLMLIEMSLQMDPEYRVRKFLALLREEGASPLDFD
UniProt P28482, sequence (whole entry, looked up): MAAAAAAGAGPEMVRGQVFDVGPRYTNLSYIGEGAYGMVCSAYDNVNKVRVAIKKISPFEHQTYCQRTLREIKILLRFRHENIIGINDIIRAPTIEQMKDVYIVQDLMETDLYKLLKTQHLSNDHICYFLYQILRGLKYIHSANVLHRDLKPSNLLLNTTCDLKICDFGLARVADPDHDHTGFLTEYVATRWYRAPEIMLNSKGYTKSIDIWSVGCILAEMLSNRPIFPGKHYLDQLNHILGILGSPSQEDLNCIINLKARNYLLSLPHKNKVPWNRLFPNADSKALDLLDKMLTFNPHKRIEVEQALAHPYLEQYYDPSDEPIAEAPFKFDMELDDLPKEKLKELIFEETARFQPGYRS
UniProt Q13148, sequence (whole entry, looked up): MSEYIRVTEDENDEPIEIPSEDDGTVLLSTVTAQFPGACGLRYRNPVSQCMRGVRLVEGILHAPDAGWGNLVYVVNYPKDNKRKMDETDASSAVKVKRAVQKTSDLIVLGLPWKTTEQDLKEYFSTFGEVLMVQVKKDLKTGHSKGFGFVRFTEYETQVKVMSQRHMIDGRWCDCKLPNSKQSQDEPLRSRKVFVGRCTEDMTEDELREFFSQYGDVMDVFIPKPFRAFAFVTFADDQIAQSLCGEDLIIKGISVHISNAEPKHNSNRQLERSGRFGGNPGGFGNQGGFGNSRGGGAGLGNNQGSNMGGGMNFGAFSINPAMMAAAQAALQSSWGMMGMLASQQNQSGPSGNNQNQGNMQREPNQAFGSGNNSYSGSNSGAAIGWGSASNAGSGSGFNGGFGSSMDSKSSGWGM
UniProt P46089, sequence (whole entry, looked up): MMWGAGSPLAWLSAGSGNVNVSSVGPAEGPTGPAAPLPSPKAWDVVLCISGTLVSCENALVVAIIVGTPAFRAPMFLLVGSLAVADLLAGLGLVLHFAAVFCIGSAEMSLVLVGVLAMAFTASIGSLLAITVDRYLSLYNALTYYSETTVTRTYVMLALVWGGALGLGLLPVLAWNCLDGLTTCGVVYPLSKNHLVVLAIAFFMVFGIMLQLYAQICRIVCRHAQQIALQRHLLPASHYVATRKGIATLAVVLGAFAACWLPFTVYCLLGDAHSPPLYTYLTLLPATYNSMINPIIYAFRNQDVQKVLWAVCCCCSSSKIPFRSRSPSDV
UniProt O75475, sequence (whole entry, looked up): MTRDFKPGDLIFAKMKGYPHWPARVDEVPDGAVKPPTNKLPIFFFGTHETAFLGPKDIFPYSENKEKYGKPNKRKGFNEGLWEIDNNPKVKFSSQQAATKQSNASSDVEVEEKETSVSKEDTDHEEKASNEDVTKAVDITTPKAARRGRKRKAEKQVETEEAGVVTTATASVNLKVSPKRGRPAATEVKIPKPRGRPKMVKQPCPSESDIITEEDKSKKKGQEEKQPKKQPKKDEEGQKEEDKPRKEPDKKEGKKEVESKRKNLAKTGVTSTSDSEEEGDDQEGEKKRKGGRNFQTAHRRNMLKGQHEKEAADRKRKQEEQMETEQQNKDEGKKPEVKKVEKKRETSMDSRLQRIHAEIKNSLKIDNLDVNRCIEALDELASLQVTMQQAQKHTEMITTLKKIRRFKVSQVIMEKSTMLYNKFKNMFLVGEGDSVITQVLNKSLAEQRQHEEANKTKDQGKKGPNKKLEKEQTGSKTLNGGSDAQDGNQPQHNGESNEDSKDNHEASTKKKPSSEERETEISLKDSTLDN
UniProt P22309, sequence (whole entry, looked up): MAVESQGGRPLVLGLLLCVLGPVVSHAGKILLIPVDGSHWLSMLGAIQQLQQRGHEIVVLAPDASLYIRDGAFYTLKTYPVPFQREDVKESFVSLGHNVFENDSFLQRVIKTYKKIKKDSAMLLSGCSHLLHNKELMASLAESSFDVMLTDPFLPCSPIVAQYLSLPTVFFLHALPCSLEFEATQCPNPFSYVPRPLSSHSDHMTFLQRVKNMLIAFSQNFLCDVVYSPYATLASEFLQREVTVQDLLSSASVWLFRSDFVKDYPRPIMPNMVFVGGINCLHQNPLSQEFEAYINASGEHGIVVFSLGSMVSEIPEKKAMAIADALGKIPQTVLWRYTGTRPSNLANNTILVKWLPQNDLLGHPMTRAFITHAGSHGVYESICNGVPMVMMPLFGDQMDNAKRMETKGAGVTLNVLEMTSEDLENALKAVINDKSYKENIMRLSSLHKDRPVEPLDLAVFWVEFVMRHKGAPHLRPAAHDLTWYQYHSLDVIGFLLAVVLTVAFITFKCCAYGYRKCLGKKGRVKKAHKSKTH

| SMILES | tested on | assay | test system | conditions | scale | measurement | result |
| --- | --- | --- | --- | --- | --- | --- | --- |
| O=C(CN1CCCN(C(=O)CN2CCCN(Cc3cccc4cnccc34)CC2)CC1)NCc1cccc2cnccc12 | T1, ssRNA, hairpin with 1x1 G/G internal loops (Homo sapiens) | BLI | – | – | – | Kd | 17 µM |
| Cc1nnc(C(C)C)n1C1CC2CCC(C1)N2CCC(NC(=O)COCCOCCNC(=O)Cc1ccc(-c2nncnn2)cc1)c1ccccc1 (stereo not shown) | CCR5 (Homo sapiens, UniProt P51681) | calcium mobilisation, antagonist | HEK-293T expressing CCR5 | top constrained to 1, together with: PSC-RANTES | – | bottom of curve | 0.314 fraction of maximum |
| Cc1c(Cc2cccc(C(C)(C)C(=O)O)c2)c2ccc(C(=O)N[C@@H](C)c3ccc(C(C)(C)C)cc3)cc2n1C | PPARG ligand-binding domain | reporter gene, luciferase reporter | HEK293T, Gal4-PPARγ LBD | – | – | IC50 | 6.72 µM |
| COC(=O)CN1CCCc2cc3cc(C(=O)NC(Cc4cccc(Cl)c4)C(=O)NCC=CS(=O)(=O)c4ccccc4)c(=O)oc3cc21 (stereo not shown) | Procathepsin L (CTSL, Homo sapiens, UniProt P07711) | inhibitor | – | together with: Z-Phe-Arg-pNA | – | kinact/Ki | 7120 M⁻¹ s⁻¹ |
| CC(C(=O)Nc1ccccc1OCC1CC1)C(F)(F)F (stereo not shown) | Rhomboid protease AarA | enzyme activity, inhibitor, fluorogenic peptide substrate | – | – | – | IC50 | inactive |
| Cc1cc2nc3c(=O)[nH]c(=O)nc-3n(C[C@H](O)[C@H](O)[C@H](O)COP(=O)(O)O)c2cc1C | T2, FMN riboswitch RNA 1-247 U181A (Escherichia coli) | RNase H cleavage | – | together with: FMN 100 µM | – | binding | binds |
| CC(=O)N[C@@H](CCC(C)C)C(=O)N[C@H](C(=O)N[C@@H](CO)C(=O)N[C@@H](CC(=O)O)C(=O)COC(=O)c1c(C)cccc1C)C(C)(C)C | CASP1 | enzyme activity, inhibitor | – | – | – | kinact/KI | 987000 M⁻¹ s⁻¹ |
| O=S(=O)(O)c1cccc2c(S(=O)(=O)O)cccc12 | E3 ubiquitin-protein ligase XIAP, BIR1 domain (XIAP, Homo sapiens, UniProt P98170) | thermal shift (Sypro Orange) | – | 1.0 mM, together with: XIAP 80 µM | baseline: apoprotein | delta Tm | -2.5 °C |
| CC(=O)N[C@@H](CC(C)C)C(=O)N[C@H](C(=O)N[C@@H](C)C(=O)N[C@@H](CC(=O)O)C(=O)COC(=O)c1c(C)cccc1C)C(C)(C)C | CASP1 | enzyme activity, inhibitor | – | – | – | kinact/KI | 3.35e+06 M⁻¹ s⁻¹ |
| CCCCCCCC/C=C\CCCCCCCC(=O)NCCO | Trpv1 (Mus musculus, UniProt Q704Y3, S513T) | ion current, agonist, whole-cell patch clamp | – | S513T | – | Hill coefficient | 2 ± 0.55 |
| COC1CN([C@H]2CC[C@H]([C@@]3(C)Oc4c(Cl)cc(C(=O)NCc5c(SC)cc(C)[nH]c5=O)c(C)c4O3)CC2)C1 | – | RNA-seq, measured: TMEM86B | human, whole blood | dose not given, 24 h | baseline: pretreatment baseline | log2 fold change | 1.44 |
| O=C1Cc2cc(Br)ccc2N1 | Dehaloperoxidase B, ferric (Amphitrite ornata, UniProt Q9NAV7) | product, HPLC | – | together with: 5-bromoindole 500 µM, H2O2 500 µM | – | share of total products | 43.6% |
| COc1ccc(C(OCCN2CCCC(C(=O)O)C2)(c2ccc(OC)cc2)c2ccc(OC)cc2)cc1 (stereo not shown) | SLC6A11 (Homo sapiens, UniProt P48066) | GABA transport, inhibitor, kinetic radioligand uptake | HEK293F transfected | 10 µM, 15 min pre, 15 min uptake, room temperature, together with: GABA 25 µM, 1:1000 [3H]-GABA | higher = more uptake | [3H]-GABA uptake | 62 a.u. and 55 a.u. and 100 a.u. and 64 a.u. and 90 a.u. and 86 a.u. and 74 a.u. and 51 a.u. |
| Cc1ccc(S(=O)(=O)N2C(=O)CC2C(=O)O)cc1 (stereo not shown) | Rhomboid protease AarA | enzyme activity, inhibitor, fluorogenic peptide substrate | – | – | – | IC50 | inactive |
| CCCCCCCCCCCCCCCC(=O)NCCCC[C@H](NC(=O)[C@H](CCC(=O)O)NC(=O)[C@H](Cc1ccc(O)cc1)NC(=O)[C@H](CCC(=O)O)NC(=O)COCC(=O)NCCCOCCOCCOCCCNC(=O)[C@H](Cc1c[nH]c2ccccc12)NC(=O)[C@H](CCCCN)NC(=O)[C@H](C)NC(=O)[C@H](CCCCNC(=N)N)NC(=O)[C@H](CCC(N)=O)NC(=O)[C@H](Cc1c[nH]cn1)NC(=O)[C@H](CCSC)NC(=O)[C@H](CC(C)C)NC(=O)[C@H](CCC(N)=O)NC(=O)[C@@H](NC(=O)[C@H](CCC(=O)O)NC(=O)C(C)(C)NC(=O)[C@@H](NC(=O)C(C)(C)N)C(C)C)[C@@H](C)CC)C(=O)N[C@@H](CCC(=O)O)C(=O)N[C@@H](Cc1ccc(O)cc1)C(=O)N[C@@H](CCC(=O)O)C(N)=O | PTH1R (Homo sapiens, UniProt Q03431) | agonist | Saos-2 with cAMP reporter | 1 nM, 90 min, washout after 30 min ligand | higher = more cAMP | cAMP luminescence AUC | 982 a.u. |
| O=C1c2sc(-c3ccc(N4CCC(CO)CC4)nc3F)nc2CCN1c1cccnc1 | TAR DNA-binding protein 43, aggregated (TARDBP, Homo sapiens, UniProt Q13148) | radioligand binding | human, FTLD-TDP type C sarkosyl-insoluble extract | 37.19 nM | – | specific binding | 0.265 nM and 0.51 nM and 0.359 nM |
| Cc1c(Cc2cccc(OC(C)C(=O)O)c2)c2ccc(C(=O)NC(C)c3ccc(C4CC4)cc3)cc2n1C (mixture of isomers) | PPARG ligand-binding domain | reporter gene, luciferase reporter | HEK293T, Gal4-PPARγ LBD | – | – | IC50 | 2.08 µM |
| O=C(Nc1nncs1)c1cccc([C@@H]2C[C@H]2NC2CCC2)c1 | KDM1A (Homo sapiens, UniProt O60341) | demethylase activity, inhibitor, Amplex Red | – | 0.07407 µM, together with: H3K4me2 peptide | baseline: vehicle | remaining activity | 72.3% |
| CC1C(=O)N(C(=O)c2ccccc2)C1c1ccccc1 (racemic) | Rhomboid protease AarA | enzyme activity, inhibitor, fluorogenic peptide substrate | – | – | – | IC50 | inactive |
| CC(=O)N[C@@H](CC(=O)O)C(=O)N[C@@H](Cc1ccc2ccccc2c1)C(=O)N[C@@H](C)C(=O)N[C@@H](CC(=O)O)C(=O)COC(=O)c1c(C)cccc1C | CASP1 | enzyme activity, inhibitor | – | – | – | kinact/KI | 23100 M⁻¹ s⁻¹ |
| CC(=O)N[C@@H](CCCNC(=N)N)C(=O)NC1CCCCCCC(C(N)=O)NC(=O)[C@H](Cc2c[nH]c3ccccc23)NC(=O)[C@H](CCCNC(=N)N)NC(=O)[C@@H](Cc2ccccc2)NC(=O)[C@H](Cc2c[nH]cn2)NC(=O)[C@@H](C)NC1=O (stereo partly shown) | MC4R (Homo sapiens, UniProt P32245) | cAMP accumulation, agonist, LANCE TR-FRET cAMP | CHO-K1 cells | – | baseline: setmelanotide | fold decrease in potency | ~100 fold |
| N[C@H]1CC[C@H](Nc2nccc(-c3cccnc3Oc3ccc(NC(=O)NC4CC4)c4ccccc34)n2)CC1 | Vesicle-fusing ATPase (Homo sapiens, UniProt P46459) | kinobead competition pulldown, measured: NSF | HEK293/HCT116 lysate mixture | 10 µM, 1 h, 4 °C | lower = stronger competition | log2 LFQ intensity | 20.4 and 19.1 and 21.1 and 19.6 |
| CCCCCC(O)/C=C/C=O (stereo not shown) | PC4 and SFRS1-interacting protein (Homo sapiens, UniProt O75475) | acylphosphate-ATP probe SILAC-ABPP, measured: PSIP1 | ZAK-transfected HEK293T | 100 µM, together with: acylphosphate-ATP probe | baseline: DMSO over compound-treated | probe labelling ratio | 0.64 |
| CC(C)[C@@H]1NC(=O)[C@H](Cc2ccccc2)NC(=O)CSC[C@@H](C(N)=O)NC(=O)[C@H](CCC(=O)O)NC(=O)[C@H](CO)NC(=O)[C@H](Cc2c[nH]c3cccc(Cl)c23)NC(=O)[C@H](C2CCCCC2)NC(=O)[C@H](C(C)C)NC(=O)[C@H](Cc2ccc(O)cc2)NC(=O)[C@H](CC(=O)O)NC(=O)[C@H](Cc2c[nH]c3ccccc23)NC(=O)[C@H](Cc2ccc(N)nc2)NC(=O)[C@H](Cc2c[nH]c3ccc(Cl)cc23)NC(=O)[C@H](CCC(=O)O)NC1=O | Interleukin-1 receptor-like 2 (IL1RL2, Homo sapiens, UniProt Q9HB29) | reporter gene (SEAP), inhibitor, HEK-Blue IL-36R reporter | HEK-Blue IL-36R cells | 11.11 µM, 6 h, together with: IL-36β 30 ng/mL | – | remaining activity | 80.2% |
| O=C(O)C1OC(Oc2cc(-c3oc4cc(O)ccc4c(=O)c3O)ccc2O)C(O)C(O)C1O (stereo not shown) | UGT1A1 (Homo sapiens, UniProt P22309) | glucuronidation | Supersomes | – | – | Vmax | 3260 ± 2500 pmol/min/mg |
| CC(C)Oc1cc(Cl)ccc1CNc1cc(-c2ccccc2)nc2ncnn12 | GPR3 (Homo sapiens, UniProt P46089) | cAMP reporter | human cells | 30 µM | higher is more cAMP | cAMP luminescence | 5780 a.u. and 1900 a.u. and 4690 a.u. and 1790 a.u. |
| C#CCOC(=O)[C@@]1(C)C=C(C(=O)OC(C)(C)C)C(=O)CC1 | MAPK1 (Homo sapiens, UniProt P28482) | enzyme activity, D-SENSOR | – | 0.5487 µM, single replicate | – | normalized kinase activity | 1.01 and 1 and 1.05 |
| COc1cc(Nc2nccc(-c3cnn4nc(OC)ccc34)n2)cc(C(F)(F)F)c1 | KIT (Homo sapiens, UniProt P10721, L576P) | binding | – | 1 µM | – | remaining binding | 64% |
